Assay results gathered from unrelated publications.
Each line is one published result; not all experiments were run side by side. “And” joins repeats or separate records; there may be more than shown. ± marks the error that the study gave.
Chain of UniProt Q13315 (whole entry, looked up): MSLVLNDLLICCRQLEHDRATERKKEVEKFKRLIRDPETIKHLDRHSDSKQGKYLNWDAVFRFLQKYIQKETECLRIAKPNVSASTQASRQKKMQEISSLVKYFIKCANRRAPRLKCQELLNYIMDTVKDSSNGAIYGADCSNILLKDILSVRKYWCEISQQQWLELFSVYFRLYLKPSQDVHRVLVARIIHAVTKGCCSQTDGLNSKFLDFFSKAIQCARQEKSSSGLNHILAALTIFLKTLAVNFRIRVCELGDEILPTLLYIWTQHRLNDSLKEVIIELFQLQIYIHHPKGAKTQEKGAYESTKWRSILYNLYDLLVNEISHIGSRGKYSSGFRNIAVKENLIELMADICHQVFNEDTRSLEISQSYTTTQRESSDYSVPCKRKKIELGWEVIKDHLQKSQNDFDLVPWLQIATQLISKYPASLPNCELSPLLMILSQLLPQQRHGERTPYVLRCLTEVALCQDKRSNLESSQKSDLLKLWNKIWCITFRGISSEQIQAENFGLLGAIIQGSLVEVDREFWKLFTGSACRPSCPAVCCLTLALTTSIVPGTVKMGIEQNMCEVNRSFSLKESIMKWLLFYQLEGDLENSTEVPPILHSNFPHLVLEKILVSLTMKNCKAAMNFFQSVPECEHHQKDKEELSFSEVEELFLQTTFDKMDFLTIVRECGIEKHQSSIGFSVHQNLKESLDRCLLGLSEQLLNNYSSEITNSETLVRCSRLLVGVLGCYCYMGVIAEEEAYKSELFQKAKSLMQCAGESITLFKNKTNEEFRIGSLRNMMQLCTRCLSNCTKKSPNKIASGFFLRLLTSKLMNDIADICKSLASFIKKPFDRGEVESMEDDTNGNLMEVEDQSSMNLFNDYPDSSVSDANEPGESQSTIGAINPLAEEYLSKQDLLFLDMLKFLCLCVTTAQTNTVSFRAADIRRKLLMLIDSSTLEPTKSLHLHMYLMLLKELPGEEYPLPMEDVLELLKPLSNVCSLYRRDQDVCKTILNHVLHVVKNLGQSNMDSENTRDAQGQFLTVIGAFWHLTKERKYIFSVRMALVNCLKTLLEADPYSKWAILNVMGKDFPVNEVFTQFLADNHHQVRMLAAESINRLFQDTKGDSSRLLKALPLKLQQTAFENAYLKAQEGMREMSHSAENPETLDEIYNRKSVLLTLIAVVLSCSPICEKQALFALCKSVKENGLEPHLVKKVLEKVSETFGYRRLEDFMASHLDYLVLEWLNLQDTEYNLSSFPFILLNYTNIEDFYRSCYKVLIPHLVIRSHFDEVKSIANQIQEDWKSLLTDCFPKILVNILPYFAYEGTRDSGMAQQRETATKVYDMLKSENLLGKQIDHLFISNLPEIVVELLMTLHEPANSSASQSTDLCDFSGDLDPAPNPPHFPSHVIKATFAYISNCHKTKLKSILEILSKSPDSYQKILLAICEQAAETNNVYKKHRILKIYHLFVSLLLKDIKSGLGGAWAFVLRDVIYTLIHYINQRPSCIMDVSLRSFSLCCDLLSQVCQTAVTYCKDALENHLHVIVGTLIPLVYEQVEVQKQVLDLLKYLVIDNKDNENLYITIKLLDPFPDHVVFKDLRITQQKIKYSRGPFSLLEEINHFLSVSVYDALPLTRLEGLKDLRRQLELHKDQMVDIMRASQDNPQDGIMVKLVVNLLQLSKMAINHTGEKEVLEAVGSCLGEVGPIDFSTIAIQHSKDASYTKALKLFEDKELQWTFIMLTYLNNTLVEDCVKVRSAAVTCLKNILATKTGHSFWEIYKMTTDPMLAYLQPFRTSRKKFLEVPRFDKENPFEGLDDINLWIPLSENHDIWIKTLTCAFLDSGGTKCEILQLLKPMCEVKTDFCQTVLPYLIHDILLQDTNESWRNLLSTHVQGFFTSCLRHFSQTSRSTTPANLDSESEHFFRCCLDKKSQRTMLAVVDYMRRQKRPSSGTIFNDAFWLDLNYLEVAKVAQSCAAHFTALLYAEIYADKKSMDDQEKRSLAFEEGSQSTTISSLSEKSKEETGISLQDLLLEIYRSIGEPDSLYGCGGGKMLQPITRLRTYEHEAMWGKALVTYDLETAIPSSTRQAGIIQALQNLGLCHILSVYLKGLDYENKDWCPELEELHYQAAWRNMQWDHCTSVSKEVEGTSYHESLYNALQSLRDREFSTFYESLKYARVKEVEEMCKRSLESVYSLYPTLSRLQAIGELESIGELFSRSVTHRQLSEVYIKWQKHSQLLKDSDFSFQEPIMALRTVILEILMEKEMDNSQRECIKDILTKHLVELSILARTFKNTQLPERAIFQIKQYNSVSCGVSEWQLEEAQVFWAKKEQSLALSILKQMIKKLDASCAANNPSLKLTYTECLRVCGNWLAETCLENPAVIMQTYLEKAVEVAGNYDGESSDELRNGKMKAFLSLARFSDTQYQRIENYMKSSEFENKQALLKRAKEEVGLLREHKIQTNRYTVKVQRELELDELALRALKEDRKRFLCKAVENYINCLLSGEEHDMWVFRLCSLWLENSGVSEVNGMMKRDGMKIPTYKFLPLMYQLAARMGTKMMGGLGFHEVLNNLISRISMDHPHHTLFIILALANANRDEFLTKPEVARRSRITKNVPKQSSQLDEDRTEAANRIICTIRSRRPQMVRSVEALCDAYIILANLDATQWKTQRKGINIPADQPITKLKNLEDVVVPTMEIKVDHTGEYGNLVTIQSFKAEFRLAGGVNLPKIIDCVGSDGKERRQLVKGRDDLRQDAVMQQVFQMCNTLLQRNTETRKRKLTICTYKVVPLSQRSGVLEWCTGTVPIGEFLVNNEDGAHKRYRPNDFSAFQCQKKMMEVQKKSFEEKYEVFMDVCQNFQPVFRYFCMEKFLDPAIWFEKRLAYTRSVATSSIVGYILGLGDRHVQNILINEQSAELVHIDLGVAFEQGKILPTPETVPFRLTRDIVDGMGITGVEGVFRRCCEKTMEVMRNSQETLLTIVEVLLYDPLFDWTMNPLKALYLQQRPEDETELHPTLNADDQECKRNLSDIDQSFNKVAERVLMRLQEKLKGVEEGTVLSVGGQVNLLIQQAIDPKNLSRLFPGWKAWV
Chain of UniProt P47809 (whole entry, looked up): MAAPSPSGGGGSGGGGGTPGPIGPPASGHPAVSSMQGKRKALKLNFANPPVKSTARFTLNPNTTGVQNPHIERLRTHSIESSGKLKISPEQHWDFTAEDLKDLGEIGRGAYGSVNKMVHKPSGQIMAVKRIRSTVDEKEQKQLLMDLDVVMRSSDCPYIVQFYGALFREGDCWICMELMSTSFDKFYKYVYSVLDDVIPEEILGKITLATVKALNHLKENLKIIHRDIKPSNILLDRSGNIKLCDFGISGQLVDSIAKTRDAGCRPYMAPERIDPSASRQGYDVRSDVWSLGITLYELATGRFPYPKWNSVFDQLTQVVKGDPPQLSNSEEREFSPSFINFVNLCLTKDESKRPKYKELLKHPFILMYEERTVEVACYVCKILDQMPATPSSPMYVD
Chain of UniProt P52564 (whole entry, looked up): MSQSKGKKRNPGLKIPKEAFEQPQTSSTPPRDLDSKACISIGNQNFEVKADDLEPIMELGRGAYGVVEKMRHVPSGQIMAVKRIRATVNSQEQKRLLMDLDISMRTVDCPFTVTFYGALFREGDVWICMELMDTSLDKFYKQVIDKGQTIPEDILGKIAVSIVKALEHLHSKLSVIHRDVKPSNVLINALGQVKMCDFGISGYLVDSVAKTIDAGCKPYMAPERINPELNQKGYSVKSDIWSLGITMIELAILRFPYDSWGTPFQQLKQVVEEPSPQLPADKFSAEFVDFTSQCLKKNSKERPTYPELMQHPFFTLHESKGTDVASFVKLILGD

Compound	target or system	assay	test system	conditions	scale	measurement	value
CC[C@H](C)[C@H](NC(=O)[C@H](CO)NC(=O)[C@H](Cc1ccc(O)cc1)NC(=O)[C@H](Cc1ccc(O)cc1)NC(=O)[C@H](CC(N)=O)NC(=O)CNC(=O)[C@H](CO)NC(=O)[C@H](Cc1ccc(O)cc1)NC(=O)[C@H](CO)NC(=O)[C@H](CO)NC(=O)[C@H](CC(N)=O)NC(=O)COCCOCCNC(=O)CN1CCN(CC(=O)O)CCN(CC(=O)O)CCN(CC(=O)O)CC1)C(=O)N[C@@H](CC(C)C)C(N)=O [copper-64 labelled]	–	dynamic PET	KPC mouse Ptf1a-CreER tdTomato, pancreas	intravenous, dose not given, 4.5 min, 84 d after tamoxifen	–	tissue uptake	13.8 %ID/mL
CC(C)[C@H]1NC(=O)C[C@H]2/C=C/CCSSC[C@@H](NC1=O)C(=O)N[C@H](Cc1cccc3ccccc13)C(=O)NCC(=O)O2	Dual specificity mitogen-activated protein kinase kinase 6 (MAP2K6, Homo sapiens, UniProt P52564)	–	–	10 µM	–	inhibition	-0.643%
CC(C)C[C@@H]1NC(=O)[C@@H](Cc2c[nH]c3ccccc23)NC(=O)[C@H](CCCNC(=N)N)NC(=O)[C@@H](CCC(=O)O)NC(=O)[C@H](CCC(N)=O)NC(=O)[C@@H](CCC(=O)O)NC(=O)[C@H](CCCNC(=N)N)NC(=O)[C@@H](Cc2c[nH]c3ccccc23)NC1=O	–	Luminex, item: MIP-2 CCL2	LDLr-/- mice, Western diet, liver	dose not given, 4 weeks	–	cytokine level	460 ± 110 pg/g tissue
CN(C)[C@H]1C[C@@]23CC[C@@]4(O2)C(=CC[C@]2(C)[C@@H](c5ccc6ccncc6c5)CC[C@H]24)C=C3[C@@H](O)[C@@H]1O	Serine-protein kinase ATM (ATM, Homo sapiens, UniProt Q13315)	ATP probe labelling, inhibitor, KiNativ profiling	–	0.1 µM	–	inhibition	-30.3%
Cc1cc(C(=O)Nc2nc3cccc(C)c3n2[C@H]2CCCCN(C(=O)/C=C/CN(C)C)C2)ccn1	Trypanosoma brucei	propidium iodide flow cytometry	bloodstream form	concentration not given, 8 h	–	cells in S phase	19.4%
COc1ccccc1-c1n[nH]c2nc(NC3CCN(C(=O)Cc4ccc(F)cc4F)CC3)ncc12	–	bead binding, competition bead pull-down, item: LMJF.22.1450	Leishmania donovani axenic amastigote extract	10 µM	reference: vehicle	relative abundance	0.96
CC(C)CC(C(=O)N1CC2(CC1C#N)C(=O)Nc1ccccc12)N(C)C(=O)c1cc2c(F)cc(F)c(F)c2[nH]1 (stereo not shown)	Betacoronavirus 1	viral replication	HCT-8, OC43	1 µM	–	inhibition	99.4%
Cc1cc(Oc2nc(N3CC[C@@H](c4ccncc4)C3)ncc2F)[nH]n1	Mycobacterium tuberculosis	–	THP-1, H37Rv non-replicating	0.03002 µM, day 4 plus 1	–	normalised growth	-5.3% and 0.265%
COc1ccccc1-c1n[nH]c2nc(N[C@H]3CC[C@H](NS(=O)(=O)CC(C)C)CC3)ncc12	–	bead binding, competition bead pull-down, item: LINJ.25.1790	Leishmania donovani extract	10 µM	reference: vehicle	relative abundance	0.69
O=S(=O)(c1ccc(-c2ccc3ncnc(Nc4ccc(OCc5cccc(F)c5)c(Cl)c4)c3c2)cc1)N1CCSCC1	Plasmodium falciparum	parasite growth, SYBR Green	D6	blood stage	–	EC50	0.46 µM
CC(C)(C)C(=O)OCOP(=O)(OCOC(=O)C(C)(C)C)C1CCCN(O)C1=O (stereo not shown)	MOLT-4	–	–	–	–	log GI50	-6.37 log M
Cc1ccc(NS(=O)(=O)c2c(C(=O)N3CCCCCC3)c(C)n(C)c2C)c(Cl)c1	Fowlpox virus	viral infection	CEF	0.412 µM	reference: untreated	infection	110% and 82% and 101%
CCOC(=O)C1(Cc2ccc(C#N)cc2)Oc2cc(F)ccc2N(Cc2ccc(C#N)cc2)C1=O (stereo not shown)	Arabidopsis thaliana	stem length, petri dish germination	Col-0, 1/2 MS medium	50 µg/mL, 7 days, 22 °C, dark	–	inhibition	28.6%
Cc1ccc(N2CC3CC(C2)N3C)cc1C(=O)NC1(c2ccc3c4c(cccc24)C(=O)N3C)CC1	human coronavirus 229E	viral replication	Huh-7	50 µM	–	inhibition	100%
O=C1NC(=O)c2c1c1cc(F)c[n+]3c1c1c2c2cc(O)ccc2[n]1[Ru-4]312([N]=C=S)[S+]3CC[S+]1CC[S+]2CC3 (stereo not shown)	Dual specificity mitogen-activated protein kinase kinase 4 (Map2k4, Mus musculus, UniProt P47809)	enzyme activity	–	100 nM, mouse enzyme, added: 10 µM ATP	reference: untreated	remaining activity	55%
O=C1NC2(CC2)COc2ncc(F)cc2[C@H]2COCCN2c2ccn3ncc1c3n2	–	–	Sprague-Dawley rat, male, blood	oral, 5 mg/kg/day, end of treatment, 4-week repeated-dose toxicity	reference: red blood cells	reticulocytes	1.45 ± 0.51%

A few entries again:
Compound	target or system	assay	test system	conditions	scale	measurement	value
O=C1NC(=O)c2c1c1cc(F)c[n+]3c1c1c2c2cc(O)ccc2[n]1[Ru-4]312([N]=C=S)[S+]3CC[S+]1CC[S+]2CC3 (stereo not shown)	Dual specificity mitogen-activated protein kinase kinase 4 (Map2k4, Mus musculus, UniProt P47809)	enzyme activity	–	100 nM, mouse enzyme, added: 10 µM ATP	reference: untreated	remaining activity	55%
O=C1NC2(CC2)COc2ncc(F)cc2[C@H]2COCCN2c2ccn3ncc1c3n2	–	–	Sprague-Dawley rat, male, blood	oral, 5 mg/kg/day, end of treatment, 4-week repeated-dose toxicity	reference: red blood cells	reticulocytes	1.45 ± 0.51%
